Measurements of several laboratories.
Compare with care: the assays were run in different laboratories.
Target: Amine oxidase [flavin-containing] A (MAOA, Homo sapiens, UniProt P21397)
Chain of UniProt P21397 (whole entry, looked up): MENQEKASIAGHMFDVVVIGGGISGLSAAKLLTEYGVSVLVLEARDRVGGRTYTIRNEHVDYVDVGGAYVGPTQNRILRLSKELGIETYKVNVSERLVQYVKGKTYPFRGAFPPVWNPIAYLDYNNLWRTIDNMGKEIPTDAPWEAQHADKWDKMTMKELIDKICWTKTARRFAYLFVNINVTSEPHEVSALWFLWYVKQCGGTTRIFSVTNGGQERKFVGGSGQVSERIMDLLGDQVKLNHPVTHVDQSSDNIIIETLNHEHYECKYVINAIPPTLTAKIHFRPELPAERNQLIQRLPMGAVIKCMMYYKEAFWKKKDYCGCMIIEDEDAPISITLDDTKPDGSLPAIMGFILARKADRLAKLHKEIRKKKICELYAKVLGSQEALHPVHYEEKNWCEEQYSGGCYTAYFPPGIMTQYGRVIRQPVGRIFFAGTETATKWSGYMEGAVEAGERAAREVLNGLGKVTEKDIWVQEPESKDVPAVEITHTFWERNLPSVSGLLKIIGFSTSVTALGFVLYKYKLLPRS
Mode: inhibitor

| Compound | test | conditions | IC50 |
| --- | --- | --- | --- |
| Cc1cc(O)c2c(c1)C(=O)c1cccc(OC3OC(COC4OC(CO)C(O)C(OC5OC(CO)C(O)C(O)C5O)C4O)C(O)C(O)C3O)c1C2=O (centres unmarked) | enzyme activity |  | 113 µM |
| O=C1Nc2ccc(F)cc2/C1=N/N=C/c1cccc(OCc2ccccc2)c1 | enzyme activity, fluorescence |  | 0.731 µM |
| COc1cc(OC)c2c(c1)C(N)(c1cc(C)cc(OC)c1OC)OC2=O (racemic) |  | 20 min, pH 7.4, 37 °C, with: kynuramine 30 µM | > 100 µM |
| Cc1ccc2c(c1)/C(=N/N=C/c1ccc(OCc3ccccc3)cc1)C(=O)N2 | enzyme activity, fluorescence |  | > 40 µM |
| COc1cc2c(c(O)c1OC)C(=O)c1c(cc(C)c(O)c1OC)C2=O | enzyme activity |  | 11.1 µM |
| COc1cc(O[C@@H]2O[C@H](CO)[C@@H](O)[C@H](O)[C@H]2O)c2c(O)c3c(=O)cc(C)oc3cc2c1 | enzyme activity |  | > 100 µM |
| O=C1Nc2ccc(Cl)cc2/C1=N/N=C/c1cccc(OCc2ccccc2)c1 | enzyme activity, fluorescence |  | > 40 µM |
| O=C(/C=C/c1ccc2c(c1)OCO2)c1ccc(Cl)s1 | enzyme activity, fluorescence |  | > 40 µM |
| COc1cc2c(c(OC)c1OC)C(=O)c1c(cc(C)c(OC3OC(CO)C(O)C(O)C3O)c1OC)C2=O (centres unmarked) | enzyme activity |  | 207 µM |
| COc1cc(OC)c2c(c1)C(c1cc(C)cc(OC)c1OC)NC2=O (racemic) |  | 20 min, pH 7.4, 37 °C, with: kynuramine 30 µM | > 100 µM |
| CCCCC1OC(=O)C2=CCCCC21 (centres unmarked) | enzyme activity, fluorescence |  | 80.1 µM |
| O=C(/C=C/c1ccc2c(c1)OCCO2)c1ccc(Cl)s1 | enzyme activity, fluorescence |  | > 40 µM |
| COc1cc(OC)cc(C(=O)c2cc(C)cc(OC)c2OC)c1 | enzyme activity, fluorescence | pH 7.4 | 11 µM |
| COc1cc(OC2OC(COC3OC(CO)C(O)C(OC4OC(COC5OC(CO)C(O)C(O)C5O)C(O)C(O)C4O)C3O)C(O)C(O)C2O)c2c(O)c3c(=O)cc(C)oc3cc2c1 (centres unmarked) | enzyme activity |  | 40.6 µM |
| COc1c(O)c(C)cc2c1C(=O)c1c(O)cc(O)cc1C2=O | enzyme activity |  | 154 µM |
| COc1ccc2c(c1)/C(=N/N=C/c1ccc(OCc3cccc(F)c3)cc1)C(=O)N2 | enzyme activity, fluorescence |  | > 40 µM |
| Cc1ccc(C(=O)/C=C/c2ccc3c(c2)OCCO3)s1 | enzyme activity, fluorescence |  | > 40 µM |
| O=C1Nc2ccc(F)cc2/C1=N/N=C/c1ccc(OCc2cccc(F)c2)cc1 | enzyme activity, fluorescence |  | 10.9 µM |
| COc1cc(/C=C/C(=O)O)cc(OC)c1O | enzyme activity, fluorescence |  | 32.9 µM |
| CCOC1(c2cc(C)cc(OC)c2OC)OC(=O)c2c(OC)cc(OC)cc21 (racemic) | enzyme activity, fluorescence | pH 7.4 | 86.3 µM |
| COc1cc(/C=C/C(=O)O)ccc1O | enzyme activity, fluorescence |  | 35.8 µM |
| O=C(/C=C/c1ccc2c(c1)OCO2)c1cccs1 | enzyme activity, fluorescence |  | > 40 µM |
| CCC/C=C1\OC(=O)C2=C1CC[C@H](O)[C@H]2O | enzyme activity, fluorescence |  | 186 µM |
| C/C(=N\NC(=O)c1cccc(S(=O)(=O)N2CCOCC2)c1)c1cc(Cl)ccc1O | enzyme activity |  | > 100 µM |
| COc1cc(OC)c2c(c1)C(O)(c1cc(C)cc(OC)c1OC)NC2=O (racemic) |  | 20 min, pH 7.4, 37 °C, with: kynuramine 30 µM | > 100 µM |
| CCCCC1OC(=O)c2ccccc21 (centres unmarked) | enzyme activity, fluorescence |  | 19.2 µM |
| COc1ccc2c(c1)/C(=N/N=C/c1ccc(OCc3ccccc3)cc1)C(=O)N2 | enzyme activity, fluorescence |  | > 40 µM |
| O=C(/C=C/c1ccc2c(c1)OCCO2)c1ccc(Br)s1 | enzyme activity, fluorescence |  | > 40 µM |
| COc1cc(OC2OC(COC3OC(CO)C(O)C(O)C3O)C(O)C(O)C2O)c2c(c1)cc(O)c1c(=O)cc(C)oc12 (centres unmarked) | enzyme activity |  | 182 µM |

Repeated from above:
| Compound | test | conditions | IC50 |
| --- | --- | --- | --- |
| O=C(/C=C/c1ccc2c(c1)OCO2)c1cccs1 | enzyme activity, fluorescence |  | > 40 µM |
| CCC/C=C1\OC(=O)C2=C1CC[C@H](O)[C@H]2O | enzyme activity, fluorescence |  | 186 µM |
| C/C(=N\NC(=O)c1cccc(S(=O)(=O)N2CCOCC2)c1)c1cc(Cl)ccc1O | enzyme activity |  | > 100 µM |
| COc1cc(OC)c2c(c1)C(O)(c1cc(C)cc(OC)c1OC)NC2=O (racemic) |  | 20 min, pH 7.4, 37 °C, with: kynuramine 30 µM | > 100 µM |
| CCCCC1OC(=O)c2ccccc21 (centres unmarked) | enzyme activity, fluorescence |  | 19.2 µM |
